# Assay results from different studies.
# Numbered parts are unrelated; each lists some results of a single study. Values joined by “and” are separate records of one study, mostly repeats; a detail may differ.

# Sample 1
# Cell line: HEK-293T
# Observed: pseudovirus infection
# Method: FDA-approved drug library screen
# Organism: VSV pseudotyped with SARS-CoV-2 spike
# Concentration: 10 µM
# Time: 16 h
# Relative to: vehicle-treated
SMILES,GFP-positive cells [%]
CCOC(=O)C(C)(C)Oc1ccc(Cl)cc1,95.2
CC(=O)Nc1c(I)c(NC(C)=O)c(I)c(C(=O)O)c1I,80.1
CCc1cccc2c3c([nH]c12)C(CC)(CC(=O)O)OCC3 (centres unmarked),79.7

# Sample 2
# Target: Replicase polyprotein 1ab, nsp13 helicase (rep, Severe acute respiratory syndrome coronavirus 2, UniProt P0DTD1)
# Mode: inhibitor
# Concentration: 20 µM
SMILES,inhibition [%]
CO[C@@H](C)Cn1c(=O)n(C)c2cnc3ccc(-c4cncc(C(C)(C)O)c4)cc3c21,1.43
CNCC(=O)O,-2.44
O=C1CC2(CCCC2)CC(=O)N1CCCCN1CCN(c2ncccn2)CC1,5.54
N#Cc1nn(-c2c(Cl)cc(C(F)(F)F)cc2Cl)c(N)c1[S+]([O-])C(F)(F)F (centres unmarked),2.45
O=Nc1ccc(O)c2ncccc12,99.8
Nc1ccn([C@@H]2C(F)=C(CO)[C@@H](O)[C@H]2O)c(=O)n1,9.44
CC(=O)c1c(C)c2cnc(Nc3ccc(N4CCNCC4)cn3)nc2n(C2CCCC2)c1=O,13.8

# Sample 3
# Target: Replicase polyprotein 1ab, main protease (rep, Severe acute respiratory syndrome coronavirus 2, UniProt P0DTD1)
# Observed: enzyme activity
# Mode: inhibitor
# Concentration: 20 µM
# Setting: hit confirmation
Structure (SMILES),inhibition
Nc1ncc2c(n1)CC(c1ccco1)CC2=O (centres unmarked),32.2%
COc1nc2ccc(Br)cc2cc1[C@@H](c1ccccc1)[C@@](O)(CCN(C)C)c1cccc2ccccc12,63.6% and 95.7%
CC[C@]1(O)C[C@@H]2C[N@@](CCc3c([nH]c4ccccc34)[C@@](C(=O)OC)(c3cc4c(cc3OC)N(C)[C@H]3[C@@](O)(C(=O)OC)[C@H](OC(C)=O)[C@]5(CC)C=CCN6CC[C@]43[C@@H]65)C2)C1,22.1%

# Other studies, line by line
SMILES,test system,setting,endpoint,value
CC[C@H](C)[C@H](NC(=O)[C@H](CC(C)C)NC(=O)[C@H](Cc1c[nH]c2ccccc12)NC(=O)[C@H](CCC(N)=O)NC(=O)[C@@H](NC(=O)[C@H](Cc1ccccc1)NC(=O)[C@H](C)NC(=O)[C@H](CCCCNC(=O)COCCOCCNC(=O)COCCOCCNC(=O)CC[C@H](NC(=O)CCCCCCCCCCCCCCCCCCC(=O)O)C(=O)O)NC(=O)[C@H](CCC(N)=O)NC(=O)[C@H](C)NC(=O)[C@@H](NC(=O)[C@H](CCCCN)NC(=O)[C@H](CC(=O)O)NC(=O)[C@H](CC(C)C)NC(=O)C(C)(C)NC(=O)[C@@H](NC(=O)[C@H](CO)NC(=O)[C@H](Cc1ccc(O)cc1)NC(=O)[C@H](CC(=O)O)NC(=O)[C@H](CO)NC(=O)[C@@H](NC(=O)[C@H](Cc1ccccc1)NC(=O)[C@@H](NC(=O)CNC(=O)[C@H](CCC(=O)O)NC(=O)C(C)(C)NC(=O)[C@@H](N)Cc1ccc(O)cc1)[C@@H](C)O)[C@@H](C)O)[C@@H](C)CC)[C@@H](C)CC)C(C)C)C(=O)N[C@@H](C)C(=O)NCC(=O)NCC(=O)N1CCC[C@H]1C(=O)N[C@@H](CO)C(=O)N[C@@H](CO)C(=O)NCC(=O)N[C@@H](C)C(=O)N1CCC[C@H]1C(=O)N1CCC[C@H]1C(=O)N1CCC[C@H]1C(=O)N[C@@H](CO)C(N)=O,"healthy subjects, single ascending dose","8.0 mg, postbaseline",treatment-emergent ADA positive subjects,0%

# Some of these lines once more (sample 3):
Structure (SMILES),inhibition
Nc1ncc2c(n1)CC(c1ccco1)CC2=O (centres unmarked),32.2%
COc1nc2ccc(Br)cc2cc1[C@@H](c1ccccc1)[C@@](O)(CCN(C)C)c1cccc2ccccc12,63.6% and 95.7%
